Assay results collected from several papers.
Lines come from different studies, so protocols differ. Values joined by “and” are separate records of one study, mostly repeats; a detail may differ. ± gives the spread as reported. ≈ marks a conversion by molar mass, not a printed value.
UniProt P45880, sequence (whole entry, looked up): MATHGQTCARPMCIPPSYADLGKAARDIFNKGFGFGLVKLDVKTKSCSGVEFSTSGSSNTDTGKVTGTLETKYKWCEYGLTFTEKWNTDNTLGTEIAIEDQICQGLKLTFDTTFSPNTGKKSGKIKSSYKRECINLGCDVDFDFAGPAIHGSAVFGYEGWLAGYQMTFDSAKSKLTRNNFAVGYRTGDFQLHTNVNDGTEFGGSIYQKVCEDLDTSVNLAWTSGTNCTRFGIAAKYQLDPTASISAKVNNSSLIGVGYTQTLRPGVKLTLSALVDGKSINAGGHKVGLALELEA

C[C@@H](O)[C@H]1C(=O)N2C(C(=O)O)=C(S[C@@H]3CN[C@H](C(=O)N(C)C)C3)[C@H](C)[C@H]12
bacterial burden, mean (Klebsiella pneumoniae; NDM-producing, neutropenic BALB/c mouse, thigh infection, thigh; dose not given, 8 h): 8.2 log10 CFU/thigh

CNC(=O)c1cc(Cl)cc(C)c1NC(=O)c1cc(Br)nn1-c1ncccc1Cl
mortality (Spodoptera litura; leaf-dip; third instar larvae; 6.25 ppm, 48 h): 60%

COc1ccc(CCN(C)CCCC(C#N)(c2ccc(OC)c(OC)c2)C(C)C)cc1OC (stereo not shown)
IC50 (Plasmodium falciparum; Dd2): 3980 nM

Nc1ncnc2c1ncn2[C@@H]1O[C@@H]2COP(=O)(O)O[C@H]3[C@@H](O)[C@H](n4cnc5c(=O)[nH]cnc54)O[C@@H]3COP(=O)(O)O[C@H]2[C@H]1O
fold enrichment (West Nile virus; RNA sequencing, measured: NOD1/2 signaling pathway R-HSA-168638; HFF-1 cells; concentration not given, upregulated pathway; reference: WNV-infected untreated cells): 5.97

C[C@@H]1CC[C@H]2[C@@H](C)C(=O)O[C@@H]3O[C@@]4(C)CC[C@@H]1[C@]32OO4
IC50 (Plasmodium falciparum; cell growth; D10): 19 nM

CC(=O)c1c(Cc2ccccc2Cl)c[nH]c1C
EC50 (Plasmodium falciparum; parasite growth; Dd2): 151 ± 45 nM

O=C(NC(=O)c1ccccc1Cl)Nc1ccc(Cl)cc1
control efficacy (Ostrinia furnacalis; corn seedlings, pot; leaf spray, 100 mg/L, day 7): 54%

CN[C@H](CC(C)C)C(=O)N[C@H]1C(=O)N[C@@H](CC(N)=O)C(=O)N[C@H]2C(=O)N[C@H]3C(=O)N[C@H](C(=O)N[C@H](C(=O)O)c4cc(O)cc(O)c4-c4cc3ccc4O)[C@H](O)c3ccc(c(Cl)c3)Oc3cc2cc(c3O[C@@H]2O[C@H](CO)[C@@H](O)[C@H](O)[C@H]2O[C@H]2C[C@](C)(N)[C@H](O)[C@H](C)O2)Oc2ccc(cc2Cl)[C@H]1O
biofilm inhibition (Staphylococcus aureus; ATCC 33591 MRSA; 2×MIC): 19%

Cn1c(=O)ccc2ccc(F)c(CCNC[C@H]3CN(c4cnc5c(n4)NC(=O)CO5)C(=O)O3)c21
MIC50 (Providencia spp.): 0.5 µg/mL (≈ 1.07 µM)

Cc1cc(Cl)cc(S(C)(=O)=O)c1NC(=O)c1cc(Br)nn1-c1ncccc1Cl
mortality (Spodoptera litura; leaf-dip; third instar larvae; 6.25 ppm, 48 h): 46.7%

COC(=O)NC(=S)Nc1ccccc1NC(=S)NC(=O)OC
EC95 (Botrytis cinerea; lesion diameter; B05.10, cucumber seedlings; spray, 3 days, 20 °C): > 400 µg/mL

CN(CCOc1ccc(CC2SC(=O)NC2=O)cc1)c1ccccn1 (stereo not shown)
Emax (Human coronavirus OC43; virus-induced cell killing; MRC-5): 18.6%

CC(C)[C@H]1NC(=O)[C@H](CCCNC(=N)N)NC(=O)CNC(=O)[C@@H](Cc2c[nH]c3ccccc23)NC(=O)[C@H](CCCCN)NC(=O)[C@@H](CCCN)NC1=O
IC90 (Naegleria fowleri; trophozoites): > 16 µg/mL

COC(=O)[C@@H]1[C@H]2C[C@H]3c4[nH]c5ccccc5c4CCN3C[C@@H]2CC[C@@H]1O
IC50 (Plasmodium falciparum; 3D7): 6310 nM

C#Cc1ccc(O)c(C=NNC(=O)c2ccc(COC)cc2)c1
FICI (Cryptococcus neoformans; H99; unit not given, together with: amphotericin B; lower = more synergy): 2.5

CC(C)[C@H]1NC(=O)[C@H](Cc2ccccc2)NC(=O)CNC(=O)[C@@H](Cc2ccccc2)NC(=O)[C@H](CCCCN)NC(=O)[C@@H](CCCNC(=N)N)NC1=O
IC90 (Naegleria fowleri; trophozoites): > 16 µg/mL

CS(=O)(=O)CCCn1c(Cn2c(=O)n(CC(F)(F)F)c3ccncc32)cc2cc(Cl)ccc21
LS mean viral load change (respiratory syncytial virus; RT-qPCR; hospitalized infants 1-24 months, nasal swab; oral, 9, 6 or 5 mg/kg daily, day 3, high dose by age cohort; reference: baseline): -2.24 log10 copies/mL

C#Cc1ccc(C=NNC(=O)c2ccc(COC)cc2)c(O)c1
time to complete kill (Cryptococcus neoformans; time-kill; H99; concentration not given): 3 h

CNCC(=O)N[C@@H](CO)C(=O)N[C@H]1[C@H](O)[C@@H](O)[C@H](n2ccc(N)nc2=O)O[C@@H]1C(N)=O
inactivation activity (Pepper mild mottle virus; 500 µg/mL): 70% and 73%

Cc1ccc2[nH]c3c(c2c1)CCCC3NCCc1ccccc1Br (stereo not shown)
MIC fold change (Streptococcus pneumoniae; concentration not given, 10% fetal bovine serum; reference: without serum): 4

NCc1ccc(-c2nc(-c3ccc(OC4CC4)cc3)no2)cc1
inhibition (Clostridioides difficile; spore germination; ATCC 43255; 45 µM, 1 h): 12 to 33%

CC(C)[C@@H]1NC(=O)[C@@H](Cc2ccccc2)NC(=O)[C@H](Cc2ccccc2)NC(=O)[C@@H]([C@H](C)O)NC(=O)[C@H]([C@@H](C)O)NC(=O)[C@@H](CCCNC(=N)N)NC1=O
IC90 (Naegleria fowleri; trophozoites): > 16 µg/mL

COc1cc2c(cc1C(F)(F)F)N(C(=O)Nc1cc(F)cc(-c3cccnc3)c1)CC2
IC50 (Plasmodium falciparum; HB3): 1000 nM

CC(C)[C@@H]1NC(=O)[C@@H](CCCCN)NC(=O)[C@H](CCCN)NC(=O)[C@@H](CC(=O)O)NC(=O)[C@H](C)NC(=O)[C@H](Cc2c[nH]c3ccccc23)NC(=O)[C@@H](Cc2c[nH]c3ccccc23)NC1=O
IC90 (Acanthamoeba castellanii; trophozoites): > 16 µg/mL

CCCOc1ccc(-c2noc(-c3ccc(CN)cc3)n2)cc1
inhibition (Clostridioides difficile; spore germination; ATCC 43255; 45 µM, 1 h): 12 to 33%

COC(=O)c1ccc2c(ccc3oc([N+](=O)[O-])cc32)c1
MIC90 (Klebsiella pneumoniae; REMA): > 32 µg/mL

CN(C)c1nc(NCc2cccc(C(F)(F)F)c2)c(/N=N/c2ccc(Cl)cc2)c(N(C)C)n1
mortality (Ostrinia furnacalis; leaf dipping; 200 mg/L, 96 h): 40 ± 10%

CN[C@H](CC(C)C)C(=O)N[C@H]1C(=O)N[C@@H](CC(N)=O)C(=O)N[C@H]2C(=O)N[C@H]3C(=O)N[C@H](C(=O)N[C@H](C(=O)O)c4cc(O)cc(O)c4-c4cc3ccc4O)[C@H](O)c3ccc(c(Cl)c3)Oc3cc2cc(c3O[C@@H]2O[C@H](CO)[C@@H](O)[C@H](O)[C@H]2O[C@H]2C[C@](C)(N)[C@H](O)[C@H](C)O2)Oc2ccc(cc2Cl)[C@H]1O
MIC90 (Staphylococcus aureus): 1 µg/mL (≈ 0.69 µM)

NCCCC[C@H]1NC(=O)[C@H](CO)NC(=O)[C@H](Cc2ccccc2)NC(=O)[C@@H](Cc2ccccc2)NC(=O)[C@H](Cc2c[nH]c3ccccc23)NC(=O)[C@@H](CCCN)NC(=O)[C@H](CCCN)NC1=O
IC90 (Naegleria fowleri; trophozoites): > 16 µg/mL

CC[C@H](C)[C@H](NC(=O)[C@H](C)NC(=O)[C@H](CCCCN)NC(=O)[C@H](CC(C)C)NC(=O)[C@H](C)NC(=O)[C@@H](NC(=O)[C@H](Cc1c[nH]cn1)NC(=O)[C@H](CC(C)C)NC(=O)[C@@H](NC(=O)[C@@H](NC(=O)[C@H](CCCCN)NC(=O)[C@H](C)NC(=O)[C@H](C)NC(=O)[C@H](CO)NC(=O)[C@H](CCCCN)NC(=O)[C@H](Cc1ccccc1)NC(=O)[C@@H](NC(=O)[C@H](CCCCN)NC(=O)[C@H](CC(C)C)NC(=O)[C@H](Cc1ccccc1)NC(=O)[C@H](CO)NC(=O)[C@H](CCCCN)NC(=O)[C@H](Cc1c[nH]c2ccccc12)NC(=O)[C@H](CCCCN)NC(C)=O)[C@@H](C)O)[C@@H](C)O)C(C)C)[C@@H](C)O)C(=O)N[C@@H](CO)C(=O)N[C@@H](CO)C(N)=O
MBC50 (Streptococcus pyogenes; erythromycin-resistant; 19 strains): 32 µg/mL (≈ 10.9 µM)

Cc1noc(-c2cccs2)c1C(=O)NC(C)c1cccc2ccccc12 (stereo not shown)
EC50 (Plasmodium falciparum; parasite growth, SYBR Green; 3D7 wild type; 72 h): 50.4 ± 16 nM

O=C(O)c1cccc(C(=O)O)n1
meropenem MIC (Pseudomonas aeruginosa; VIM-2 and OXA-50 producer; 32 µg/mL, together with: meropenem): 2 µg/mL

CC(C)[C@H]1NC(=O)[C@H](Cc2ccccc2)NC(=O)[C@@H](Cc2c[nH]c3ccccc23)NC(=O)[C@H](CCCNC(=N)N)NC(=O)[C@@H](CCCN)NC(=O)[C@H](CC(N)=O)NC1=O
IC50 (Acanthamoeba castellanii; trophozoites): > 16 µg/mL

CCN(CC)CCO[C@H]1CC[C@@]2(C)C(=CC[C@@H]3[C@@H]2CC[C@]2(C)C(=O)CC[C@@H]32)C1
EC90 (human rotavirus; viral replication, focus reduction; MA104, DS-1): 19900 nM

CC(C)(C)c1cc(C=C(C#N)C#N)cc(C(C)(C)C)c1O
IC50 (Plasmodium falciparum; 7G8): 1050 nM

C#Cc1ccc(O)c(C=NNC(=O)c2cc(Br)cc(Br)c2O)c1
FICI (Cryptococcus neoformans; H99; unit not given, together with: amphotericin B; lower = more synergy): 4

Cc1[nH]c(C)c(-c2ccc(OCCn3cnc(Cl)c3Cl)cc2)c(=O)c1Br
EC50 (Plasmodium falciparum; parasite growth, SYBR Green; 3D7 DHODH E182D; 72 h): 3610 ± 230 nM

COCC(=O)O[C@]1(CCN(C)CCCc2nc3ccccc3[nH]2)CCc2cc(F)ccc2[C@@H]1C(C)C
IC50 (Plasmodium falciparum; Dd2): 1000 nM

CCN(CC)CC#Cc1ccc2[nH]c(C)c(Cl)c(=O)c2c1
EC50 ratio (Plasmodium falciparum; parasite growth, SYBR Green; 72 h; reference: 3D7-E182D over 3D7): 3.1

Cc1ccc(CCNC2CCCc3c2[nH]c2ccc(C)cc32)cc1 (stereo not shown)
MIC fold change (Streptococcus pneumoniae; concentration not given, 10% fetal bovine serum; reference: without serum): 4

CC(C)[C@@H]1NC(=O)[C@@H](Cc2ccccc2)NC(=O)[C@H](Cc2ccccc2)NC(=O)[C@@H]([C@H](C)O)NC(=O)[C@@H](CCCNC(=N)N)NC1=O
IC50 (Acanthamoeba castellanii; trophozoites): > 16 µg/mL

OC(CCN1CCCCC1)(c1ccccc1)C1CCCCC1 (stereo not shown)
IC50 (Plasmodium falciparum; 3D7): 12600 nM

COc1cc(N[C@H](C(=O)c2c[nH]c3ccc(OC(F)(F)F)cc23)c2ccc(Cl)cc2OC)cc(S(C)(=O)=O)c1
inhibition (dengue virus 2; viral infection, luciferase reporter virus; 0.0003 nM, 48 h): 2.5%

Cc1cc(=O)oc2c1ccc1oc(C(O)c3ccc(Cl)cc3)c(C)c12 (stereo not shown)
EC50 ratio (Plasmodium falciparum; parasite growth, SYBR Green; 72 h; reference: 3D7-E182D over 3D7): 4.2

C[C@H]1CN(c2n[nH]c3nc(N[C@H]4CC[C@H](NS(=O)(=O)CCC(F)(F)F)CC4)ncc23)CCO1
remaining binding (Non-selective voltage-gated ion channel VDAC2 (Homo sapiens, UniProt P45880); Kinobeads competition, measured: VDAC2; 0.16 µM, unit not given; reference: vehicle): 0.98

CCSc1nnc(C2CCCN(CC(=O)Nc3cc(C(F)(F)F)ccc3Cl)C2)n1CC (stereo not shown)
EC50 (Plasmodium falciparum; parasite growth, SYBR Green; 3D7 wild type; 72 h): 294 ± 69 nM

CCN1CCN(C(=O)N[C@@H](C(=O)N[C@@H]2C(=O)N3[C@@H]2SC(C)(C)[C@@H]3C(=O)O)c2ccccc2)C(=O)C1=O
zone of inhibition (Escherichia coli; ΔtolC JW5503-1; 200 µM, together with: 30 µg/mL 2,2'-bipyridyl): 24 mm

CCOc1cccc(=O)c2c(C)n(Cc3ccc(Cl)cc3)c(C)c12
EC50 (Plasmodium falciparum; parasite growth; Dd2): 493 ± 250 nM

O=C(NN=Cc1ccc(O)c(Br)c1)c1cccc(Br)c1
MIC in combination (Cryptococcus neoformans; concentration not given, together with: tunicamycin): 0.15 µg/mL

O=C(Cc1ccc(Cl)c(Cl)c1)N1CCCCC1CN1CCCC1 (stereo not shown)
IC50 (Plasmodium falciparum; 7G8): 5010 nM

CC(C)C[C@H]1NC(=O)[C@H]([C@@H](C)O)NC(=O)[C@@H](CCCN)NC(=O)[C@H](CCCNC(=N)N)NC(=O)[C@@H](Cc2ccccc2)NC1=O
IC50 (Naegleria fowleri; trophozoites): > 16 µg/mL

Cc1ccc(N2CCc3c(-c4cc5cccnc5nc4C)cc(C)nc32)c(Cl)c1
EC50 (Plasmodium falciparum; parasite growth; Dd2): 381 ± 35 nM

For quick reference, copied from above:
CC(C)(C)c1cc(C=C(C#N)C#N)cc(C(C)(C)C)c1O
IC50 (Plasmodium falciparum; 7G8): 1050 nM

CC(C)[C@@H]1NC(=O)[C@@H](CCCCN)NC(=O)[C@H](CCCN)NC(=O)[C@@H](CC(=O)O)NC(=O)[C@H](C)NC(=O)[C@H](Cc2c[nH]c3ccccc23)NC(=O)[C@@H](Cc2c[nH]c3ccccc23)NC1=O
IC90 (Acanthamoeba castellanii; trophozoites): > 16 µg/mL

Cc1cc(=O)oc2c1ccc1oc(C(O)c3ccc(Cl)cc3)c(C)c12 (stereo not shown)
EC50 ratio (Plasmodium falciparum; parasite growth, SYBR Green; 72 h; reference: 3D7-E182D over 3D7): 4.2

Cc1[nH]c(C)c(-c2ccc(OCCn3cnc(Cl)c3Cl)cc2)c(=O)c1Br
EC50 (Plasmodium falciparum; parasite growth, SYBR Green; 3D7 DHODH E182D; 72 h): 3610 ± 230 nM

CC(C)[C@@H]1NC(=O)[C@@H](Cc2ccccc2)NC(=O)[C@H](Cc2ccccc2)NC(=O)[C@@H]([C@H](C)O)NC(=O)[C@@H](CCCNC(=N)N)NC1=O
IC50 (Acanthamoeba castellanii; trophozoites): > 16 µg/mL

O=C(NC(=O)c1ccccc1Cl)Nc1ccc(Cl)cc1
control efficacy (Ostrinia furnacalis; corn seedlings, pot; leaf spray, 100 mg/L, day 7): 54%

C[C@@H]1CC[C@H]2[C@@H](C)C(=O)O[C@@H]3O[C@@]4(C)CC[C@@H]1[C@]32OO4
IC50 (Plasmodium falciparum; cell growth; D10): 19 nM

CCSc1nnc(C2CCCN(CC(=O)Nc3cc(C(F)(F)F)ccc3Cl)C2)n1CC (stereo not shown)
EC50 (Plasmodium falciparum; parasite growth, SYBR Green; 3D7 wild type; 72 h): 294 ± 69 nM

COC(=O)[C@@H]1[C@H]2C[C@H]3c4[nH]c5ccccc5c4CCN3C[C@@H]2CC[C@@H]1O
IC50 (Plasmodium falciparum; 3D7): 6310 nM
